# Results gathered from unrelated publications.
# Protocols differ between the studies behind these lines. ± gives the spread as reported. Where no end group is shown, it is not given here.
Substance,organism,test,system,conditions,scale,endpoint,value
TRTRVSRLY,rhesus rotavirus,,"peptide, mouse cholangiocytes","2 mM, 18 h, 37 °C",relative to: medium control,viral yield,59.9%
CCCCCCCCOc1c(OC)cc(NC(C)CCCNC(=O)C(N)Cc2ccccc2)c2nc(C(C)(C)C)ccc12 (centres unmarked),Staphylococcus aureus,,MRSA ATCC 33591,,,MBC,> 20 µg/mL
CP(=O)(O)CCC(N)C(=O)O (centres unmarked),Setaria faberi,,,"500 g/ha, 13 days, SETFA, post-emergence spray","relative to: untreated (0%), complete kill (100%)",herbicidal activity,100%
O=C(CN1c2c(n[nH]c2-c2cccc(Cl)c2)-c2ccccc2S1(=O)=O)NN=Cc1ccccc1[N+](=O)[O-],HIV-1,viral replication,PBMC,,,EC90,> 100 µM
CN[C@@H]1[C@H](O)[C@H](NC)[C@H]2O[C@@]3(O)C(=O)C[C@@H](C)O[C@H]3O[C@@H]2[C@H]1O,Haemophilus influenzae,"microbial growth, disc diffusion",ATCC49247,40 µg/disc,,inhibition zone,11 to 12.5 mm
C=C1[C@@H](C)[C@H]2[C@H](Cc3ccccc3)NC(=O)[C@]23[C@H](OC(C)=O)/C=C/[C@](C)(O)C[C@@H](C)C/C=C/[C@H]3[C@@H]1O,Phyllosticta citricarpa,,Citrus sinensis leaf disc,"10 µL of 10 mg/mL, 21 days, methanol solution",,pycnidia number,43 ± 7
HVFLRF-NH2 (C-amide),Drosophila melanogaster,gut contraction,wandering third instar larval gut,"injection, 1 µM, within 10 min",relative to: DMS effect,inhibition,0%
CCCCCCOc1c(OC)cc(NC(C)CCCNC(=O)C(N)Cc2cc3ccccc3[nH]2)c2nc(C(C)(C)C)ccc12 (centres unmarked),Staphylococcus aureus,microbial growth,ATCC33591 MRSA,drug-resistant strain,,IC50,5.43 µg/mL
CC(=NNC(=O)CN1c2c(-c3ccccc3)n[nH]c2-c2ccccc2S1(=O)=O)c1cc(C)sc1C,HIV-1,viral replication,PBMC,,,EC90,> 100 µM
COC(=O)[C@H](CO)NC(C)=C1C(=O)C=C2Oc3c(C(C)=O)c(O)c(C)c(O)c3[C@@]2(C)C1=O,Candida tropicalis,broth microdilution,ATCC 750 fluconazole and amphotericin B resistant,24 and 48 h,,MIC99,6.7 µM
CC[C@H](C)[C@H](NC(=O)[C@H](CCCCN)NC(=O)[C@H](CCC(=O)O)NC(=O)[C@H](CCCCN)NC(=O)[C@H](CO)NC(=O)[C@H](CCCCN)NC(=O)[C@H](CCCNC(=N)N)NC(=O)[C@H](Cc1ccccc1)NC(=O)[C@H](Cc1ccccc1)NC(=O)[C@H](CC(=O)O)NC(=O)CNC(=O)[C@H](CC(C)C)NC(=O)[C@@H](N)CC(C)C)C(=O)NCC(=O)N[C@@H](CCCCN)C(=O)N[C@@H](CCC(=O)O)C(=O)N[C@@H](Cc1ccccc1)C(=O)N[C@@H](CCCCN)C(=O)N[C@@H](CCCNC(=N)N)C(=O)N[C@H](C(=O)N[C@H](C(=O)N[C@@H](CCC(N)=O)C(=O)N[C@@H](CCCNC(=N)N)C(=O)N[C@H](C(=O)N[C@@H](CCCCN)C(=O)N[C@@H](CC(=O)O)C(=O)N[C@@H](Cc1ccccc1)C(=O)N[C@@H](CC(C)C)C(=O)N[C@@H](CCCNC(=N)N)C(=O)N[C@@H](CC(N)=O)C(=O)N[C@@H](CC(C)C)C(=O)N[C@H](C(=O)N1CCC[C@H]1C(=O)N[C@@H](CCCNC(=N)N)C(=O)N[C@H](C(=O)N[C@@H](CCC(=O)O)C(=O)N[C@@H](CO)C(=O)O)[C@@H](C)O)C(C)C)[C@@H](C)CC)C(C)C)[C@@H](C)CC,Staphylococcus aureus,,JE2 SAUSA300_0829 lipA transposon mutant,12.5% TSB,relative to: wild type over mutant,MIC ratio,2 fold
TFFRLFNRGRRRRSVQWCA,Streptococcus gordonii,OD600,"peptide, ATCC 10558, 4 h single-species biofilm","128 µg/ml, 5 min exposure, OD600 read over 5 h",,biofilm growth,no effect
CCN(CC)Cc1cc(Nc2ccnc3cc(Cl)ccc23)ccc1O,Dengue virus 2,"viral replication, plaque",BHK-21,72 h,,EC90,2.69 ± 0.47 µM
Cc1ccccc1-c1nc(CN2CCC(C(=O)NCc3cccnc3)CC2)c(C)o1,Hepatitis C virus,"HCV infection, Gaussia luciferase reporter",Huh7.5.1 reporter cells,,"relative to: 10 µM cyclosporin A, DMSO, negative means inhibition",maximal response,-42.7%

# Excerpt of the above:
Substance,organism,test,system,conditions,scale,endpoint,value
CC[C@H](C)[C@H](NC(=O)[C@H](CCCCN)NC(=O)[C@H](CCC(=O)O)NC(=O)[C@H](CCCCN)NC(=O)[C@H](CO)NC(=O)[C@H](CCCCN)NC(=O)[C@H](CCCNC(=N)N)NC(=O)[C@H](Cc1ccccc1)NC(=O)[C@H](Cc1ccccc1)NC(=O)[C@H](CC(=O)O)NC(=O)CNC(=O)[C@H](CC(C)C)NC(=O)[C@@H](N)CC(C)C)C(=O)NCC(=O)N[C@@H](CCCCN)C(=O)N[C@@H](CCC(=O)O)C(=O)N[C@@H](Cc1ccccc1)C(=O)N[C@@H](CCCCN)C(=O)N[C@@H](CCCNC(=N)N)C(=O)N[C@H](C(=O)N[C@H](C(=O)N[C@@H](CCC(N)=O)C(=O)N[C@@H](CCCNC(=N)N)C(=O)N[C@H](C(=O)N[C@@H](CCCCN)C(=O)N[C@@H](CC(=O)O)C(=O)N[C@@H](Cc1ccccc1)C(=O)N[C@@H](CC(C)C)C(=O)N[C@@H](CCCNC(=N)N)C(=O)N[C@@H](CC(N)=O)C(=O)N[C@@H](CC(C)C)C(=O)N[C@H](C(=O)N1CCC[C@H]1C(=O)N[C@@H](CCCNC(=N)N)C(=O)N[C@H](C(=O)N[C@@H](CCC(=O)O)C(=O)N[C@@H](CO)C(=O)O)[C@@H](C)O)C(C)C)[C@@H](C)CC)C(C)C)[C@@H](C)CC,Staphylococcus aureus,,JE2 SAUSA300_0829 lipA transposon mutant,12.5% TSB,relative to: wild type over mutant,MIC ratio,2 fold
